Measurements pooled from the literature.
Parts stem from different laboratories: compare values within a part only. Substitutions count along the parent as printed.

Series 1 — technique: RNA Bind-n-Seq; molecule type: RNA; sample: in vitro; concentration: 365 nM; baseline: no-protein control; direction: higher = stronger binding
Target: RNA binding protein fox-1 homolog 2, RRM domain, GST-SBP tag (RBFOX2, Homo sapiens, UniProt O43251-10, residues 100-194)
Setting: natural RNA segment, single round, ends assumed
Shared flanks, not repeated: GGGAGUUCUACAGUCCGACGAUC … UGGAAUUCUCGGGUGCCAA
Construct (chain): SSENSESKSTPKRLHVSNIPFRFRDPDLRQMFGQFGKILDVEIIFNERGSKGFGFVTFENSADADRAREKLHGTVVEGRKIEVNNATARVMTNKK
| Oligonucleotide | RBNS enrichment (R) |
| --- | --- |
| GUCUUGUUUUCAUUUGAUUUUUGUUAAGAGUGCAGUAUUGCAGAGUCUAGAGGAAUUUUUGUUUCCUUGAUUAACAUGAUUUUCCUGGUUGUUACAUCCAGGGCAUGGCA | 1.56 |
| UUUGUGCACACACACAGGGCUCUUGUGUGUGUUGUCAAGGGGACCCUCCGUGGCCUCCCGUGAGUGCAUGCCUGUAGUGCACAGUGUCUCUACAGGUGUCUUCUGGGGGG | 0.223 |
| UUUUCUUGAGCUAAAGACAGGCUUUUUCCACCGGCAUCAUCACUGCUAUCAUCAUUAACAGCGUAAUUAUACAAGCAUAUUUAAUGCUGAGUUUAAUUUAAUAUGUAAUA | 0.279 |
| CAGUGGGCAGGGGUGGCAGAGGACACGAGCAGCCACUGCCCGUACCCCCUCUCCUCUCUGUAAGCCCAUGCCCUGUCUUCCCAGGGACUUGUGAGCCUCUUCCCUCGACG | 0.325 |
| UUAUUAUCCUCUCUCUUGGCUUCUCUCUUUCUGAUAUCAGUUCCUGAAGCCUCUCACUAACCCCUAGCUCCAGGAGUACCUCAGCAAUGUCCAUGGCUGAAGCUACACCC | 0.298 |
| CAUGUUCAUUCUCAUGUUUUUUGUCAGUGUGACCUUCUCAUGCCCUGUCAUGAUAGAGCUGUAAUUCUGGUGUCACACGGAUCACUUACUGGAGGUGUAUAAUAUGAGAU | 0.487 |
| UGUCAUUGGGUAUAUAUGUAUUUACUCUCUAUUAUUGGGCAUAAAGGUGGCUUCUGCUCCAGAACUCUAUCCACUGUAUUUCCACAUCGUGAGUCAUUUUACUUUAAAAG | 0.397 |
| CCCUGGCCCUGCCCCGCCAUCUGCUUUCACCAAGCUGUCUCUCCACCGUGGCUUCCCUUCUCCCUCCAGGCCAAAGUGCUGCUGAUUCCCACUCCCUUGGUUUUCGCCUG | 0.756 |
| CAGAAAUAAGAACUUCAGGACCACGUGGCUUUGCAUAUACAGAGCUUAACAAGCUUUGAGAAACUCAUAAGGUUCAAGUCACCUUCAAAAGAAAGGUACAAUGGAAACAC | 0.396 |
| UUUGAGACAUCCCCAUUUCUAUGUAGGUGGGAUUUUGCUUUCAUUUCUGAUUUAAAUUAGCUCCUUGUGUCCUUGCUUUAUCUUUGGGGCAUCUUUAGUUCCAAGAACUG | 1.25 |
| GUUUUGUGUAACUCCCAGUGAUGCUGUACACAUAUUUGAAGGGUCUUUCUCAAAGAAAUAUUAAGCAUGUUUUGUUGCUCAGUGUUUUUGUGAAUUGCUUGGUUGUAAUU | 1.91 |
| UUUAUUAGAACACUGCAGUUGACUGAAAACAUGCAGAUGCACUGGAAGAGAACCUUGUGCUGAGGUAAUGGCCUCCCACUGCCGCCUGAGUGCUGAAAUGAGCUUGAGGU | 0.482 |

Series 2 — technique: competition protein-binding microarray; molecule type: double-stranded DNA, one strand shown; sample: in vitro; concentration: 2 µM; with: Cbf1 competitor, 0.05 µM; direction: higher = stronger binding; shared flanks, not repeated: … GTCTTGATTCGCTTGACGCTGCTG
Target: Phosphate system positive regulatory protein PHO4, full length, GST-tagged (PHO4, Saccharomyces cerevisiae, UniProt P07270, residues 1-312)
Setting: whole 60-bp probe, lowest competitor level
Target sequence (chain): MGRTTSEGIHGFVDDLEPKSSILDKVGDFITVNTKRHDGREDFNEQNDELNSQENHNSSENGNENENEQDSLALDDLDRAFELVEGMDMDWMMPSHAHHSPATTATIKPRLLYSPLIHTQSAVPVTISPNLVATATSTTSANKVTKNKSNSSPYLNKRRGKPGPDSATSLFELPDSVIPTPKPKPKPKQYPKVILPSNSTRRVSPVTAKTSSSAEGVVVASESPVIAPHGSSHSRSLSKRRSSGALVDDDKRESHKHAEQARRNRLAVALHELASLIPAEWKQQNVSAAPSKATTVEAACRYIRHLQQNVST
| Oligonucleotide | fluorescence intensity [a.u.] |
| --- | --- |
| CTAACGAAGGTTTTTCACGTGTCCTACAAGCCAAGT | 12300 |
| AACTGCTGAAGTCCCCATGTGACAGTGAGCGGGGTC | 9480 |
| GCGTCCTGTAAAGAGAGCGTGCGATAAGCCGCTATT | 7740 |
| CATACCCAACCTTGAGATGTGGGTGAAGATATTTGT | 4050 |
| CTTTCCCGATCTTTTCACGTGTCATTAGCACATTTG | 13300 |
| CGTCCTAGTGATTTTCACGTGTCGTCCATGAGGAAG | 12500 |
| CATGATTTCCTATTGTGCGTGCCGAATTTACGGACG | 9350 |
| CTTCTGTAAATTTGTATGGTGGGTGGACGCGCCCCG | 4200 |
| TTCAATGGGACCCATCACGGCCATGACGATATCCAG | 3740 |
| TCAAAAAGGGACAATCACCTGGATGCATAAGGAGGA | 4020 |
| AAAGCGGTAATTTGCCATGTGGGTGCAGATATCTAT | 11500 |
| TAGAGAGTTGTCCATCACGTTGGACAGGTTGTACTT | 9060 |
| CTTCTGTAAATTTTTCACGTGTGTTGACGCGCCCCG | 10200 |
| TTTTATGCGATATTACATGTGTCAATAGCAAAAGGG | 7470 |
| CCGAAATTTGCTTCACACGTGTCTGTTGATAAGCAA | 16900 |
| GTAACAGTATACGATCATGTGATATTACGTACATAA | 6770 |
| GTTGTTGCTATCCATCACGTGATGGATTTTTCCGAG | 15100 |
| CTAGGGCACCTCCGTCACCTGGCTTTTCTTCAACTT | 3450 |
| TTGGGTGATGTTTTGCATGTGTGCTGCCCAAGTTGA | 8520 |

Series 3 — target: CCNA2, cyclin fold, Cln2 fusion (human); technique: yeast growth competition, sequencing; sample: yeast; setting: strong parent motif; baseline: not given; direction: higher = stronger binding
Starting sequence: NPAT docking peptide (human); PCHRRVLCFDSTT
| Variant | normalised enrichment score |
| --- | --- |
| PCHRRALCFDSTT [V6A] | 2.4 |
| PCHRRVLCADSTT [F9A] | -0.158 |
| PCHRRVLCFDSAT [T12A] | 1.45 |
| ACHRRVLCFDSTT [P1A] | -0.106 |
| PCHRRVLAFDSTT [C8A] | 1.15 |
| PCHRRVLCFDSTA [T13A] | 1.27 |
| PCHRKVLCLDSTT [R5K F9L] | 0.278 |

Series 4 — technique: protein-binding microarray; molecule type: double-stranded DNA, one strand shown; sample: in vitro; concentration: 2540 nM top; setting: 60-bp whole probe; with: salmon DNA 0.4 mg/ml; baseline: random background probes; direction: higher = stronger binding; shared flanks, not repeated: GCCTAGCAC … GTCTTGATTCGCTTGACGCTGCTG
Target: Interferon regulatory factor 3, full length, phosphomimetic (IRF3, Homo sapiens, UniProt Q14653, residues 1-427, S386D/S396D/S398D/S402D/T404D/S405D)
Construct (chain): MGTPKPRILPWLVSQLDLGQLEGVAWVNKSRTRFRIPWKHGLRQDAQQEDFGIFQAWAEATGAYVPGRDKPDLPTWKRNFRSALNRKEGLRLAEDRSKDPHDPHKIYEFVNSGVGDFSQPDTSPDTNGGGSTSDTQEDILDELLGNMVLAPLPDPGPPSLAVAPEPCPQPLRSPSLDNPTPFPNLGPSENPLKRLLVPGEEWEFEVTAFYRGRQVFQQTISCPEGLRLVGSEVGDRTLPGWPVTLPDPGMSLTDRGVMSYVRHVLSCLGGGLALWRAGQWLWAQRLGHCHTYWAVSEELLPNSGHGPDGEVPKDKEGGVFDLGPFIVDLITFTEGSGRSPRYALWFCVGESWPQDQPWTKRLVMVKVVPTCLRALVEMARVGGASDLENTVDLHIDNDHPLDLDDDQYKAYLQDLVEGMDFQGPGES
| Oligonucleotide | fitted relative affinity |
| --- | --- |
| CCCTATTTAAGGCATCTGCAGGTGCTA | 1.33 z-score |
| TCATCTTTATGCACTCTCACTGTGCTA | 0.898 z-score |
| GACGGTATCGACACTGGGGGCGTGCTA | 0.755 z-score |
| TCAAGCCTCTGTTTTGAACTGTGCTAG | -0.402 z-score |
| TCAATTCTGAAAATGGAACTGTGCTAG | 0.919 z-score |
| TCATACATGGGTATAGAACTGTGCTAG | -0.215 z-score |
| GACGGTTTCGGGACTGGGGGCGTGCTA | 4.5 z-score |
| TTAGGTTTCGGTTTCAGTTAGTGCTAG | 11.1 z-score |
| TTAGAACTGGGGACTGGATAAGTGCTA | -0.777 z-score |
| GACGGTATCCGACTGCTGACGTGCTAG | 2.36 z-score |
| GACGGATTCGACACTGGGGACGTGCTA | 0.213 z-score |
| GACGGTCTTCTACTGCTGACGTGCTAG | -0.114 z-score |
| TTAGGTATCGGTTTAGGTTAGTGCTAG | 5.66 z-score |
| TTAGGTTTCCTTCTCCTTAAGTGCTAG | 10.5 z-score |
| GACGGGATCGGGTTTCGGGACGTGCTA | 1.42 z-score |
| TTTTTTCTTTTATTAGTGACGTGCTAG | 3.4 z-score |
| TTAGGACTTGACACTGGGTTAGTGCTA | -0.789 z-score |
| TTAGATCTCACACTGGATTAGTGCTAG | 0.0478 z-score |
| CACATCTGCTGTGGGAGCACGTGCTAG | 0.698 z-score |
| TTACGTTTCGACACTGGGTTAGTGCTA | 2.39 z-score |
| GACGATTTCAGTTTCGTGACGTGCTAG | 4.13 z-score |
| GACGGTTTCGAGTATCGGGACGTGCTA | 3.44 z-score |
| GACGATCTCCGTATCGAGACGTGCTAG | 1.24 z-score |

Series 5 — technique: DHFR PCA, deep sequencing; sample: yeast; with: (+)-ABA 1.4 µM; baseline: wild-type fitted maximum; direction: higher = stronger binding
Target: ABI1, truncated, D143A, DHFR fusion (Arabidopsis thaliana)
Setting: methotrexate growth selection, single substitutions
Starting sequence: PYL1, truncated, DHFR fusion (Arabidopsis thaliana); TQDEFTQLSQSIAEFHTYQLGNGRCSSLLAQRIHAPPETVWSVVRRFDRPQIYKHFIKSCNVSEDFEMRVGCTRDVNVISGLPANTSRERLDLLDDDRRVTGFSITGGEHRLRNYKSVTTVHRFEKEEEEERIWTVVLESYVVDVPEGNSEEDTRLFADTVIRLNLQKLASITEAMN
| Variant | relative binding score [%] |
| --- | --- |
| D3G | 23.1 |
| G71S | -0.336 |
| V118P | -9.23 |
| K116G | -3.86 |
| H122C | -2.02 |
| V137N | 3.87 |
| L166K | -3.18 |
| C25K | -24 |
| E64F | 17.1 |
| I133E | 90 |
| S59V | 5.83 |
| T173L | -2.32 |
| F47R | 4.62 |
| D96K | 4.27 |
| E129C | 59.8 |
| M68T | 23.1 |
| S150R | 5.12 |
| R132Y | 44 |

Series 6 — technique: protein binding microarray; molecule type: double-stranded DNA, one strand shown; sample: in vitro; concentration: not given; baseline: not given; direction: higher = stronger binding
Target: Histone acetyltransferase KAT6A, winged helix 1, GST fusion (KAT6A, Homo sapiens, UniProt Q92794, residues 1-85)
Setting: 8-mer, flanks averaged, mean of 2 arrays, mostly near background
Construct (chain): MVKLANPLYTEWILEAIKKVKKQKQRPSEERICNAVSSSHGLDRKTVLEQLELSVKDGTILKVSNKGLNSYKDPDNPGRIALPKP
| Oligonucleotide | E-score |
| --- | --- |
| CCACCCTA | -0.265 |
| TCTTGACA | -0.174 |
| TCATAAGA | -0.15 |
| CATTGTTC | -0.0551 |
| AACGCTAA | 0.0573 |
| ACTCTCGC | 0.11 |
| AACGCGTG | 0.348 |
| GCGTACTA | 0.275 |
| TAAGCTCA | -0.109 |
| ATCGGTTA | 0.0813 |
| ACAGACTC | -0.0995 |
| ATTGTGGC | -0.0254 |
| AACAGAAT | -0.187 |
| CGACCAAC | -0.0767 |
| CAAGCGCC | 0.372 |
| CACTTTGA | -0.284 |

For quick reference, copied from above (series 4):
| Oligonucleotide | fitted relative affinity |
| --- | --- |
| TTAGGTTTCGGTTTCAGTTAGTGCTAG | 11.1 z-score |
| TTAGAACTGGGGACTGGATAAGTGCTA | -0.777 z-score |
| GACGGTATCCGACTGCTGACGTGCTAG | 2.36 z-score |
| GACGGATTCGACACTGGGGACGTGCTA | 0.213 z-score |
| GACGGTCTTCTACTGCTGACGTGCTAG | -0.114 z-score |
| TTAGGTATCGGTTTAGGTTAGTGCTAG | 5.66 z-score |
| TTAGGTTTCCTTCTCCTTAAGTGCTAG | 10.5 z-score |
| GACGGGATCGGGTTTCGGGACGTGCTA | 1.42 z-score |
| TTTTTTCTTTTATTAGTGACGTGCTAG | 3.4 z-score |
